Assay results pooled from the literature.
Lines come from different studies, so protocols differ. ± gives the spread as reported.

C[C@]12CC[C@H](O)CC1=CC[C@@H]1[C@@H]2CC[C@]2(C)C(c3cccnc3)=CC[C@@H]12  unbound Cmax (human, plasma; concentration not given): 3.7 nM
CCN(CC)CCNC(=O)c1c(C)[nH]c(/C=C2\C(=O)Nc3ccc(F)cc32)c1C  unbound fraction (human, cancer patients on NNRTI, plasma; oral, 50 mg/day): 0.069 ± 0.021
C=CCn1c(=O)c2cnc(Nc3ccc(N4CCN(C)CC4)cc3)nc2n1-c1cccc(C(C)(C)O)n1  unbound tumour concentration (human glioblastoma patients, tumour; oral, 100, 200, 400 mg, median across doses and times): 24 ng/g
O=C(O)CNC(=O)/C=C/c1ccccc1  unbound fraction in plasma (untargeted mass spectrometry; human normal subjects, plasma ultrafiltrate): 4 ± 1%
CN1CC[C@@H](NC(=O)Nc2ccc(C#N)cc2)C[C@@H]1c1nc2ccccc2[nH]1  unbound AUC(0-last) (human, severe hepatic impairment, fasted, plasma; oral, 100 mg single dose, geometric mean, fu × total): 962 ng·h/mL
CC1=C(CC(=O)O)c2cc(F)ccc2/C1=C\c1ccc([S+](C)[O-])cc1 (centres unmarked)  unbound Cmax (human, plasma; concentration not given): 2240 nM
C/C=C(\C)C(=O)NCC(=O)O  unbound fraction in plasma (untargeted mass spectrometry; human normal subjects, plasma ultrafiltrate): 52 ± 19%
Cc1cc(Nc2ncc(Cl)c(Nc3ccccc3S(=O)(=O)C(C)C)n2)c(OC(C)C)cc1C1CCNCC1  unbound tumour and CSF concentration (human; oral, 750 mg/day; relative to: median of 10 patients): > 10 fold

Some of these lines once more:
C/C=C(\C)C(=O)NCC(=O)O  unbound fraction in plasma (untargeted mass spectrometry; human normal subjects, plasma ultrafiltrate): 52 ± 19%
